{"data": "Assay results of several laboratories", "note": "Parts stem from different laboratories: compare values within a part only."}
{"data": "Sample 1", "target": "RNA binding protein fox-1 homolog 2, RRM domain, GST-SBP tag (RBFOX2, Homo sapiens, UniProt O43251-10, residues 100-194)", "technique": "RNA Bind-n-Seq", "molecule type": "RNA", "sample": "in vitro", "concentration": "365 nM", "notes": "natural RNA segment, single round, ends assumed", "relative to": "no-protein control", "direction": "higher = stronger binding", "Residues (chain)": "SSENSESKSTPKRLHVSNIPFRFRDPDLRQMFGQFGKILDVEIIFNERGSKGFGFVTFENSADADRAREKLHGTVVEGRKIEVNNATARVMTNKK"}
{"Sequence": "GGGAGUUCUACAGUCCGACGAUCCUGAAAUUUUAUUUUUCCACAACAGGGUGAUUGGCAGUGGUUGUUCUCCCUUUUUCUGACAGUGUGGUUCAGCUCCUGUUUCAGAUUCUGUGUCAUUUUUCAAUUUACAAUGGAAUUCUCGGGUGCCAA", "RBNS enrichment (R)": 0.828}
{"Sequence": "GGGAGUUCUACAGUCCGACGAUCUCCAACAUCAAUUUCAUUGCACAGACUGACUGUAGUUAAUUUUGUCACAGAAUCUAUGGACUGAAUCUAAUGCUUCCAAAAAUGUUGUUUGUUUGCAAAUAUCAAACAUUUGGAAUUCUCGGGUGCCAA", "RBNS enrichment (R)": 0.514}
{"Sequence": "GGGAGUUCUACAGUCCGACGAUCAGAUGCCCCAGAGCUGUUUAUGGCCUCAGCUGCCUCACUUCCUACAAGAGCAGCCUGUGGCAUCUUUGCCUUGGGCUGCUCCUCAUGGUGGGUUCAGGGGACUCAGCCCUUGGAAUUCUCGGGUGCCAA", "RBNS enrichment (R)": 0.217}
{"Sequence": "GGGAGUUCUACAGUCCGACGAUCCCUUCCCGCUUUUCCCAGAGCUAAUACACAGGUGCUAUUAUUCAGAAAAAAACUGGUCAGCUCUAGCCAACAGUGAGGUUUCUUUUCUUCUGCCCUAACUAUUGUGUAGCUGGAAUUCUCGGGUGCCAA", "RBNS enrichment (R)": 0.329}
{"data": "Sample 2", "target": "Histone acetyltransferase KAT6A, winged helix 2, GST fusion (KAT6A, Homo sapiens, UniProt Q92794, residues 85-181)", "technique": "protein binding microarray", "molecule type": "double-stranded DNA, one strand shown", "sample": "in vitro", "concentration": "not given", "notes": "8-mer, flanks averaged, mean of 2 arrays, mostly near background", "relative to": "not given", "direction": "higher = stronger binding", "Residues (chain)": "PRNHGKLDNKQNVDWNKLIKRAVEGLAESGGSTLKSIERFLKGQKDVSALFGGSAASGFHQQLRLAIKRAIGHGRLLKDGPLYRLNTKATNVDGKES"}
{"Sequence": "TCCGAAAA", "E-score": -0.0422}
{"Sequence": "ACACAGTC", "E-score": -0.149}
{"Sequence": "ACGACGTG", "E-score": -0.0863}
{"Sequence": "TCTTGGCA", "E-score": 0.105}
{"Sequence": "AGAATTAC", "E-score": 0.0521}
{"data": "Sample 3", "target": "Interferon regulatory factor 5, full length, phosphomimetic (IRF5, Homo sapiens, UniProt Q13568-2, residues 1-514, K96S/S451D/S453D/S456D/S462D)", "technique": "protein-binding microarray", "molecule type": "double-stranded DNA, one strand shown", "sample": "in vitro", "concentration": "250 nM", "notes": "60-bp whole probe", "with": "salmon DNA 0.4 mg/ml", "relative to": "random background probes", "direction": "higher = stronger binding"}
{"Sequence": "GCCTAGCACTTAGGTATCTTTATCCTTTAGTGCTAGGTCTTGATTCGCTTGACGCTGCTG", "log fluorescence [z-score]": 0.218}
{"Sequence": "GCCTAGCACGACGGACTGGACTTTCGGGACGTGCTAGTCTTGATTCGCTTGACGCTGCTG", "log fluorescence [z-score]": 3.71}
{"Sequence": "GCCTAGCACAGGTGGGAGGGGACAGTGGTGTGCTAGGTCTTGATTCGCTTGACGCTGCTG", "log fluorescence [z-score]": 0.00739}
{"Sequence": "GCCTAGCACTTAGATTTCGGGTTTCCATTAGTGCTAGTCTTGATTCGCTTGACGCTGCTG", "log fluorescence [z-score]": 5.39}
{"data": "Other studies, line by line"}
{"Molecule": "PhoQ, residues 284 288 289 292 302 303 AGCYAI", "target": "PhoP, residues 12 14 15 18 19 LHTVL (Escherichia coli, UniProt P23836)", "test": "Sort-seq, measured: YFP reporter", "test system": "E. coli", "setting": "PhoQ-PhoP variant library, with: 10 µM Mg2+", "how to read": "relative to: high Mg2+ state, higher = stronger signaling", "measurement": "fold induction", "result": 19.1}
{"note": "A few entries again (sample 3):"}
{"Sequence": "GCCTAGCACTTAGATTTCGGGTTTCCATTAGTGCTAGTCTTGATTCGCTTGACGCTGCTG", "log fluorescence [z-score]": 5.39}
